{"data": "Measured values gathered from unrelated publications", "note": "Numbered parts are unrelated; each lists some results of a single study. Positions count from the first letter of the parent shown."}
{"data": "Set 1", "target": "Sal-like protein 4, full length isoform A (SALL4, Homo sapiens, UniProt Q9UJQ4, residues 1-1053)", "method": "universal PBM", "molecule type": "double-stranded DNA, one strand shown", "matrix": "in vitro", "concentration": "600 nM", "notes": "8-mer, flanks averaged, mean of replicates", "direction": "higher = stronger binding", "chain of UniProt Q9UJQ4 (whole entry, looked up)": "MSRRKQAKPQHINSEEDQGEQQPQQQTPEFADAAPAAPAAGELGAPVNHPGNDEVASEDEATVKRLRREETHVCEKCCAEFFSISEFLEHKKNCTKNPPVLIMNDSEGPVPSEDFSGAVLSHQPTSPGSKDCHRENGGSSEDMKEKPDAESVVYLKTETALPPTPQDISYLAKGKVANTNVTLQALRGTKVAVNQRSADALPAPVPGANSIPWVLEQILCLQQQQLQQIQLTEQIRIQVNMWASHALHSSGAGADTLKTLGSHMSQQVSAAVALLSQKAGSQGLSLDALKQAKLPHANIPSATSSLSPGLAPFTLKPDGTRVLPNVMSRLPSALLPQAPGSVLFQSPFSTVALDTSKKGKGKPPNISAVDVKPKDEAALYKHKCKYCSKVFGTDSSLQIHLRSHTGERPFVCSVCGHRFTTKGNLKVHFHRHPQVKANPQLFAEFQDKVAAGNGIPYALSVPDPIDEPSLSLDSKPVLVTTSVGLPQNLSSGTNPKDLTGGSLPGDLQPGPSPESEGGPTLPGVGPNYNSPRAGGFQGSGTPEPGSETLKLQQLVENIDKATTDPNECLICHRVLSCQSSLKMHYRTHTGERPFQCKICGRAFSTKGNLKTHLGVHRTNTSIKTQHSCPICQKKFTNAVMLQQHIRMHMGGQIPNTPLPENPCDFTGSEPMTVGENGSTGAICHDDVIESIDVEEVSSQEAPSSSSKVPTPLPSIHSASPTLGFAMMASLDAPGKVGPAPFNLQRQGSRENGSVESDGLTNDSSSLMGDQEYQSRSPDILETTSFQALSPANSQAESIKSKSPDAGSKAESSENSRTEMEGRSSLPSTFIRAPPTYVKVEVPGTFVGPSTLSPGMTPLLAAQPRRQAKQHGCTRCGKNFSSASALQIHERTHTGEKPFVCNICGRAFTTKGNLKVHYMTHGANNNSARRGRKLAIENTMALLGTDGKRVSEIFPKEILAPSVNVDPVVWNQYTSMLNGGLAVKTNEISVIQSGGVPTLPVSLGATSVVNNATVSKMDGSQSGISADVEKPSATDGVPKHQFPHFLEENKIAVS"}
{"Oligonucleotide": "GAACCTAA", "E-score": -0.0814}
{"Oligonucleotide": "GAAGAGTC", "E-score": -0.116}
{"Oligonucleotide": "CTAGTACC", "E-score": -0.0746}
{"Oligonucleotide": "CATCACTC", "E-score": -0.187}
{"Oligonucleotide": "CCGACCGA", "E-score": -0.333}
{"Oligonucleotide": "CGGACTGC", "E-score": -0.162}
{"Oligonucleotide": "CAGTATAA", "E-score": 0.293}
{"Oligonucleotide": "GTGTAGAA", "E-score": 0.0622}
{"Oligonucleotide": "CGGCCATA", "E-score": -0.0686}
{"Oligonucleotide": "ACATCCCC", "E-score": -0.161}
{"Oligonucleotide": "ACATAACT", "E-score": 0.305}
{"data": "Set 2", "target": "Histone acetyltransferase KAT6A, winged helix 2, GST fusion (KAT6A, Homo sapiens, UniProt Q92794, residues 85-181)", "method": "protein binding microarray", "molecule type": "double-stranded DNA, one strand shown", "matrix": "in vitro", "concentration": "not given", "notes": "8-mer, flanks averaged, mean of 2 arrays, mostly near background", "baseline": "not given", "direction": "higher = stronger binding", "Target sequence (chain)": "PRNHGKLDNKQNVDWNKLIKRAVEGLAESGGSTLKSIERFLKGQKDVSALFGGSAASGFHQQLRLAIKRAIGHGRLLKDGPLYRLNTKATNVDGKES"}
{"Oligonucleotide": "CCCGCTCG", "E-score": 0.0501}
{"Oligonucleotide": "AAAACCCT", "E-score": -0.0575}
{"Oligonucleotide": "CAGCCCCC", "E-score": 0.0287}
{"Oligonucleotide": "ATTCGAAG", "E-score": 0.0767}
{"Oligonucleotide": "CCCGCGTC", "E-score": 0.179}
{"Oligonucleotide": "CCCTGAGA", "E-score": -0.135}
{"Oligonucleotide": "CAATCACA", "E-score": -0.00847}
{"Oligonucleotide": "AATTCTCC", "E-score": -0.0222}
{"Oligonucleotide": "GCTAACGA", "E-score": -0.00217}
{"data": "Set 3", "target": "CCNA2, cyclin fold, Cln2 fusion (human)", "method": "yeast growth competition, sequencing", "matrix": "yeast", "notes": "weak parent motif", "baseline": "not given", "direction": "higher = stronger binding", "starting sequence": "MASTL docking peptide (human); PMIAKNLMCELDE"}
{"Change": "PMGAKNLMCELDE [I3G]", "normalised enrichment score": -0.0165}
{"Change": "PMIAFNLMCELDE [K5F]", "normalised enrichment score": -0.265}
{"Change": "PMIAKNLMCNLDE [E10N]", "normalised enrichment score": 0.0738}
{"Change": "PMIAKILMCELDE [N6I]", "normalised enrichment score": 0.41}
{"Change": "PVIAKNLMCELDE [M2V]", "normalised enrichment score": -0.0821}
{"Change": "PMIAKNLMCYLDE [E10Y]", "normalised enrichment score": 0.428}
{"Change": "PMIAKSLMCELDE [N6S]", "normalised enrichment score": -0.417}
{"Change": "PMITKNLMCELDE [A4T]", "normalised enrichment score": -0.0827}
{"Change": "PMIRKNLMCELDE [A4R]", "normalised enrichment score": 0.645}
{"Change": "PMIAKNLMMELDE [C9M]", "normalised enrichment score": -0.187}
{"Change": "PMMAKNLMCELDE [I3M]", "normalised enrichment score": -0.362}
{"Change": "PMIAKNLYCELDE [M8Y]", "normalised enrichment score": -0.252}
{"Change": "PPIAKNLMCELDE [M2P]", "normalised enrichment score": 0.0402}
{"data": "Mixed results"}
{"Substance": "PhoQ, residues 284 288 289 292 302 303 SCCLKL", "target": "PhoP, residues 12 14 15 18 19 GHCSL (Escherichia coli, UniProt P23836)", "assay": "Sort-seq, item: YFP reporter", "system": "E. coli", "setting": "PhoQ-PhoP variant library, together with: 10 µM Mg2+", "scale": "baseline: high Mg2+ state, higher = stronger signaling", "endpoint": "fold induction", "value": 7.59}
{"note": "For quick reference, copied from above (set 2):"}
{"Oligonucleotide": "CCCTGAGA", "E-score": -0.135}
{"Oligonucleotide": "AATTCTCC", "E-score": -0.0222}
